Measurements gathered from unrelated publications.
A part holds a random share of what one study measured.

Study 1 — method: RNA Bind-n-Seq; form: RNA; medium: in vitro; concentration: 365 nM; relative to: no-protein control; reading: higher = stronger binding
Target: RNA binding protein fox-1 homolog 2, RRM domain, GST-SBP tag (RBFOX2, Homo sapiens, UniProt O43251-10, residues 100-194)
Notes: natural RNA segment, single round, ends assumed
Target sequence (chain): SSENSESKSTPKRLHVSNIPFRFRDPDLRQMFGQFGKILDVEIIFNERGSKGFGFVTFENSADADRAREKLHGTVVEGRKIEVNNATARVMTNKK
Under “RBNS enrichment (R)”, `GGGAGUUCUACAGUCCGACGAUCGUGGCGACUGCUCUUAUUUAAGGAAACCACCUUGGGUCUGAGAGGUGGAGAGGCCGUGGGAUUAAGCACAAUAGGAGGCGCAGCUCCUGCUUCUACCGUUAGGCGCUGCAUGGAAUUCUCGGGUGCCAA` is recorded as 1.4.
`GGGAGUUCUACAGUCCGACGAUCGCAGUGCAUUGAAGGACCCAAGUCCUCAGCCUACUUUCCUACUUUCUGACUGUAGUAAAAGCUGCUUCCUGUCCUGUUCAAGUUGCUGCAGCAGGGGUCAUGCCAAGUCAUGGAAUUCUCGGGUGCCAA` — result for “RBNS enrichment (R)”: 0.354.
`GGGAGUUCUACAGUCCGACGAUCAAAAAAAAAAAAAGUGUCUCCAGGAGGCUGUCCAGCCUCGUGGCUCCAUUUCAACAUCUCCCCCCAGGCGAUGUUCUCCCCCAAGACGACCAGAAAAUUGUUUAUUGGGGUGGAAUUCUCGGGUGCCAA`: “RBNS enrichment (R)” 0.242.
Under “RBNS enrichment (R)”, `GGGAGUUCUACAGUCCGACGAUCAGUGUGUUCUGCCUGCCCGUUACAGUGGAGCGUUCCGUGUCCAUAAAACGUUUUCUAACUGGGUGUUACUGAGUGCCCAUUUAUGUUAGUAUUUGCAAAAUACCAUAAACUGGAAUUCUCGGGUGCCAA` is recorded as 0.32.
For `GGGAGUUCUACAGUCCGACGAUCUAGUGCCAGAUUACUAUUGGUGGCGUUUAAGAUGAAAGCAAGUUCAAAAUUUGUCAUUUUGGGUGUCAACAGCUAAAUGGUCUGGUUUUUACCCCUGUUUUGCCUUUUUUUGGAAUUCUCGGGUGCCAA`, “RBNS enrichment (R)” read 0.363.
Under “RBNS enrichment (R)”, `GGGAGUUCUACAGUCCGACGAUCAGCUUCUGUGUUGGUCCUUUGUAGAGAUGGAAGUGGAGCCAUCCUGCUGUGAACAGUUAUGAACCAGGGGAGGCUGCUGCAUGUGCCUAUUAUGUUGGCAGUGGGUGGCAUGGAAUUCUCGGGUGCCAA` is recorded as 12.3.
Under “RBNS enrichment (R)”, `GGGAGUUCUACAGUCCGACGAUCAAAAAAAAAAGUGUAAUUAGAAAUGGAAAUCUAGGUAAAGGAAGCUUUAAAAUGUUGUAUUUUUUCCCUGAAAUAAACUUUUAUGAUUUAAUGUCUUGGAAAAAGACUCAUGGAAUUCUCGGGUGCCAA` is recorded as 1.23.
For `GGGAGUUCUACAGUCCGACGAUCGCACAGCAGCUUGUCAGAGUGAGAACUGUCCUGGGGCCAGAGACUAACAUGCCCAGGUGGUGUCGGCUCAGAGGAUCCUAGCACCAUCUUAAGCAGGUGGGAGGCAGGGAUGGAAUUCUCGGGUGCCAA`, “RBNS enrichment (R)” read 0.409.
Under “RBNS enrichment (R)”, `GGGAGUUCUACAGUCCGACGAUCAUUUAGUACUGAAACAUGCUCUUUUACCUAACAGUAAACAAGUAUGUUUUGAUAUAUAUCUGUUAAUAUGCUUAUAGUGGUAAGAAAUGGACUUGAGGUCCCAGGAGAUUUGGAAUUCUCGGGUGCCAA` is recorded as 0.309.
`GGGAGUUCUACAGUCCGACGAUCGAGGGACAUGCCUACUAGGAGUUUUUAAUGAUGUGGUAUUUAAAGUAUUGUCUCUUAGUUAAGUAUGAUUUAUUAACCCAGUGGAGCACUGUCUGCUUUUAAAUUGUCACUGGAAUUCUCGGGUGCCAA` — result for “RBNS enrichment (R)”: 0.648.
For `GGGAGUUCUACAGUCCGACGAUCUGUGAAGAAUCAACUCUAGGGUUACCUGUGAAGCCACGCGGUGGUGUUCGAAGCUGUCUGGUAAUGCCCCCAUCUCUCCCCGGGUCCAGUGGAUUUUUUUAACUAUUAUUUGGAAUUCUCGGGUGCCAA`, “RBNS enrichment (R)” read 0.658.
`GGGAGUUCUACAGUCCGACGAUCCUCUAAAGUACUUGAGUGGUGCUAAGCUGGGCCUUGCAGAGCUUAGCUUAUAGCAGACCUUGAGCCUCCUUGGUUACAGCAGGUUGUGGAUAAGUUACAUCGGGCUUCAUUGGAAUUCUCGGGUGCCAA`: “RBNS enrichment (R)” 0.423.

Study 2 — method: protein binding microarray; form: double-stranded DNA, one strand shown; medium: in vitro; concentration: not given; relative to: not given; reading: higher = stronger binding
Target: Histone acetyltransferase KAT6A, both winged helices, GST fusion (KAT6A, Homo sapiens, UniProt Q92794, residues 1-181)
Notes: 8-mer, flanks averaged, mean of 2 arrays, mostly near background
Target sequence (chain): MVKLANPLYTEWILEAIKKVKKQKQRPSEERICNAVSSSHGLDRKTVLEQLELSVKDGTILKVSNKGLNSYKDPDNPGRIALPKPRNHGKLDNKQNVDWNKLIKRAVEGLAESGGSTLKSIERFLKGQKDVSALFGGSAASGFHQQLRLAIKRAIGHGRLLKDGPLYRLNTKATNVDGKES
The E-score of `TGCTAGCA` is reported as 0.0337.
`TCTAAGAA` gave an E-score of -0.0672.
`ATATCACC` has an E-score of 0.0839.
`ACGTATGC` has an E-score of 0.082.
`CGCCAAAA` has an E-score of 0.219.
`TAATCTCA` gave an E-score of -0.0951.
For `AGGCGTCG`, the E-score was 0.176.
The E-score of `AGTCGTCA` is reported as -0.15.
With `TAGTCGAA` the E-score was -0.0395.
With `ACATATAG` the E-score was -0.00725.
The E-score of `ATCACGTC` is reported as -0.0653.
With `GGGAAGCA` the E-score was -0.0129.
The E-score of `ATGCGCTC` is reported as 0.166.
The E-score of `CGGGTGCA` is reported as 0.0479.
The E-score of `AAAAGCCG` is reported as 0.299.
For `GTAGAGCA`, the E-score was -0.196.
The E-score of `GTAGCGAA` is reported as 0.00777.
With `GGGTTTAA` the E-score was -0.0884.

Study 3 — method: universal PBM; form: double-stranded DNA, one strand shown; medium: in vitro; concentration: 600 nM; reading: higher = stronger binding
Target: Sal-like protein 4, full length isoform A (SALL4, Homo sapiens, UniProt Q9UJQ4, residues 1-1053)
Sequence of UniProt Q9UJQ4 (whole entry, looked up): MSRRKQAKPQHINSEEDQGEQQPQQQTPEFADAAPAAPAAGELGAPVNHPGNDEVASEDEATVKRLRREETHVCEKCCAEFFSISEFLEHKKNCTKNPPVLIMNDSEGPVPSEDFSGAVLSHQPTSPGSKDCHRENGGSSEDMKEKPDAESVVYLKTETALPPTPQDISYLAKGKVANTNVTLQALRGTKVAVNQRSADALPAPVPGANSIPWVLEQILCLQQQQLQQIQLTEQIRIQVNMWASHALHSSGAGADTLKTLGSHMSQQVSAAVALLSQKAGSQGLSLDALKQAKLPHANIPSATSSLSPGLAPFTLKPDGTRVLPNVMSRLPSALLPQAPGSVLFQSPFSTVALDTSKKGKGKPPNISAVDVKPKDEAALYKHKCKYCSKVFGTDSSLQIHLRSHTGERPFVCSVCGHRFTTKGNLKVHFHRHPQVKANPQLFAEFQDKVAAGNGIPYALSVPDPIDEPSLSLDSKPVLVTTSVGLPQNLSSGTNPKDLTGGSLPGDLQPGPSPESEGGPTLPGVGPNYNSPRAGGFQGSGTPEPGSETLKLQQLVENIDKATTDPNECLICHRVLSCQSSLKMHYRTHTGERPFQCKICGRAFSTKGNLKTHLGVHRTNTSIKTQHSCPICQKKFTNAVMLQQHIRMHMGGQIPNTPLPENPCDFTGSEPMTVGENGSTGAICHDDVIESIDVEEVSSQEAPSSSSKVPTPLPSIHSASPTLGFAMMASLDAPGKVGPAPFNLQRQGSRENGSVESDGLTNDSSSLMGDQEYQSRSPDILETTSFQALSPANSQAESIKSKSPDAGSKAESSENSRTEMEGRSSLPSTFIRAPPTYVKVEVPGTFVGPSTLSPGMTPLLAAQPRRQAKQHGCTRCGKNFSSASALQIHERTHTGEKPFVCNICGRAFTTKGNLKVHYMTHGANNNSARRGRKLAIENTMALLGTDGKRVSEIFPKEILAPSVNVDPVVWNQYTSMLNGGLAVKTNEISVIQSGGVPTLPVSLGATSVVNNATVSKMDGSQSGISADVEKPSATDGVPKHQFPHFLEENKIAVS
Notes: 8-mer, flanks averaged, mean of replicates
With `AACCTTTC` the E-score was -0.0715.
`CAGCTGCA` has an E-score of -0.135.
With `ACCGGGGG` the E-score was -0.383.
The E-score of `AGGAGGGA` is reported as -0.194.
For `GAGTTCAC`, the E-score was -0.173.
`AAGATAAA` gave an E-score of 0.323.
For `ACCGATTG`, the E-score was 0.0749.
With `AGAGGGGG` the E-score was -0.18.
For `AACATCCC`, the E-score was -0.151.
The E-score of `TACCCTCA` is reported as -0.132.
The E-score of `GGGGAAAA` is reported as 0.0215.
`ATGCTAAA` has an E-score of 0.16.
`ATGCGGCG` gave an E-score of -0.133.
`ACGGGTCA` gave an E-score of -0.285.
With `AGACCCCG` the E-score was -0.226.
With `CATGCTGA` the E-score was -0.0652.
`CGACAAAC` gave an E-score of -0.105.
`AAGTCTTA` gave an E-score of 0.116.
With `TAGCCAAA` the E-score was 0.169.

Study 4 — method: RNA Bind-n-Seq; form: RNA; medium: in vitro; concentration: 200 nM; notes: whole 134-nt RNA, ends assumed; with: 150 mM LiCl; relative to: input library; reading: higher = stronger binding; each molecule: 7-deaza-guanosine replaces G
Target: Ras GTPase-activating protein-binding protein 1, full length (G3BP1, Homo sapiens, UniProt Q13283)
Sequence of UniProt Q13283 (whole entry, looked up): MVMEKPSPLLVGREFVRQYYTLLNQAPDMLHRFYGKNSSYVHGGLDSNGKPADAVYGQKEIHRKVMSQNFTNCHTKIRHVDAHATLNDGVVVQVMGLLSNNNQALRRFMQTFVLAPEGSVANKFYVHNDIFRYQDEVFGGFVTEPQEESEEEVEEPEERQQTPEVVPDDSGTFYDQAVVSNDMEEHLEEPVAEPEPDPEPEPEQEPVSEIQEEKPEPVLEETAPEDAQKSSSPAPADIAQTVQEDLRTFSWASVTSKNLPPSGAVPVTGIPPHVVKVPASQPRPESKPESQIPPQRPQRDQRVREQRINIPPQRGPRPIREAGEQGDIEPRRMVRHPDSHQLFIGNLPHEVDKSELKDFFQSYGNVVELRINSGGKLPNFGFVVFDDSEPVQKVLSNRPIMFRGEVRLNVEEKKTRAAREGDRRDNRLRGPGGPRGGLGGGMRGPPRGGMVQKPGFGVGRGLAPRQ
The log2 enrichment of `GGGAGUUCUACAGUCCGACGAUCUGUGCUACACAUCGUAUGUACCGAAUCGGGGAAAAAAAGGGAAAAAAAGGGAAAAAAAGGGGAAAGUAUUAUGUUACGCCGUUCGGAUCUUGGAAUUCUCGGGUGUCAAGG` is reported as 0.351.
`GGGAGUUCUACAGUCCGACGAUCAAGUCCUGUGCUACACAUCGUAUGUACCGAAUCGGUUUUUGGAAAAAGGAAAAAGGAAAGUAUUAUGUUACGCCGUUCGGAUCUGCACUUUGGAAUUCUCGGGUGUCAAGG` gave a log2 enrichment of -1.11.
`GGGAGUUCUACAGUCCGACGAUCUGGCCCUGAUGGCAUGCGGGGAGGAAGAGGUGGCCUCAUGGAUCGUGGUGGUCCCGGUGGAAUGUUCAGAGGUGGCCGUGGUGGAGACAGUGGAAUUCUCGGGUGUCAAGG` gave a log2 enrichment of -0.105.
With `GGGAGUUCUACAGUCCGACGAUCCAAGUCCUGUGCUACACAUCGUAUGUACCGAAUCGGUUUUUUUGGUGGAAAAAGGAAAGUAUUAUGUUACGCCGUUCGGAUCUGCACUUCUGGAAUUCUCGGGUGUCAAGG` the log2 enrichment was -0.833.
For `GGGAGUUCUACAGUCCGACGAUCAGUCCUGUGCUACACAUCGUAUGUACCGAAUCGGCCCCCGGGGCCCCCGGCCCCCGGAAAGUAUUAUGUUACGCCGUUCGGAUCUGCACUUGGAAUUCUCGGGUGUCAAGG`, the log2 enrichment was -0.64.
With `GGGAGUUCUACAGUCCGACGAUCCUCAAGUCCUGUGCUACACAUCGUAUGUACCGAAUCGGUUUGGAGGAAAAAGGAAAGUAUUAUGUUACGCCGUUCGGAUCUGCACUUCCAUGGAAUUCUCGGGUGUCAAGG` the log2 enrichment was -0.116.
`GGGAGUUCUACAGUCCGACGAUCCCUGUGCUACACAUCGUAUGUACCGAAUCGGAAAAAAAGGAAAAAAAGGAAAAAAAGGGGAAAGUAUUAUGUUACGCCGUUCGGAUCUGCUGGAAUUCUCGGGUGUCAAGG` gave a log2 enrichment of -0.442.
For `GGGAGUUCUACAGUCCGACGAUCCCUGUGCUACACAUCGUAUGUACCGAAUCGGAAAAAAAGGGAAAAAAAGGAAAAAAAGGGGAAAGUAUUAUGUUACGCCGUUCGGAUCUGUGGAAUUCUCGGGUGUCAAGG`, the log2 enrichment was 0.0243.
For `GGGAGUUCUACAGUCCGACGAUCACCAUGCAGGUGGGCAUCUUUGGGAAGUGGGGCAAGGGGGGGAUAGGGACGGGGGUAACACUUUGGGAACAGGUGGUCCCAGGUCGUUUCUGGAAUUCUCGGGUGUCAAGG`, the log2 enrichment was 0.21.
`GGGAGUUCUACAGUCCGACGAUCGCAGGAAGUAAAAACAAAUGGAAAUGCUUCGGAUAGUGAAAGGGGUGGGGGUUGCUAAGGAAAGGGUGGGAUGGGAGUGGGUAAAGAGUUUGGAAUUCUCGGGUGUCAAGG` gave a log2 enrichment of 0.527.
`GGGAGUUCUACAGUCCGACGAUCCACAGACAACACGCACCCACACAGACACAGAGGGAAGGGGUUGGGAUGGGGACAGUGUGCACAGCAGGGCGGGGUAGGACCCCAGCCCCUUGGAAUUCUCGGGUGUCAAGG` has a log2 enrichment of -0.305.

Some of these lines once more (study 1):
`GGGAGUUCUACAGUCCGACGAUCGCAGUGCAUUGAAGGACCCAAGUCCUCAGCCUACUUUCCUACUUUCUGACUGUAGUAAAAGCUGCUUCCUGUCCUGUUCAAGUUGCUGCAGCAGGGGUCAUGCCAAGUCAUGGAAUUCUCGGGUGCCAA` — result for “RBNS enrichment (R)”: 0.354.
`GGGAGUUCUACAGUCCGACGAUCAAAAAAAAAAAAAGUGUCUCCAGGAGGCUGUCCAGCCUCGUGGCUCCAUUUCAACAUCUCCCCCCAGGCGAUGUUCUCCCCCAAGACGACCAGAAAAUUGUUUAUUGGGGUGGAAUUCUCGGGUGCCAA`: “RBNS enrichment (R)” 0.242.
Under “RBNS enrichment (R)”, `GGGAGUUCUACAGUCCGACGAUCAGUGUGUUCUGCCUGCCCGUUACAGUGGAGCGUUCCGUGUCCAUAAAACGUUUUCUAACUGGGUGUUACUGAGUGCCCAUUUAUGUUAGUAUUUGCAAAAUACCAUAAACUGGAAUUCUCGGGUGCCAA` is recorded as 0.32.
